# Experimental data from different studies.
# Values joined by “and” are separate records of one study, mostly repeats; a detail may differ. Numbers after ± are the reported error.
# USP5: Ubiquitin carboxyl-terminal hydrolase 5 (USP5, Homo sapiens, UniProt P45974)
# Sequence of UniProt P45974 (whole entry, looked up): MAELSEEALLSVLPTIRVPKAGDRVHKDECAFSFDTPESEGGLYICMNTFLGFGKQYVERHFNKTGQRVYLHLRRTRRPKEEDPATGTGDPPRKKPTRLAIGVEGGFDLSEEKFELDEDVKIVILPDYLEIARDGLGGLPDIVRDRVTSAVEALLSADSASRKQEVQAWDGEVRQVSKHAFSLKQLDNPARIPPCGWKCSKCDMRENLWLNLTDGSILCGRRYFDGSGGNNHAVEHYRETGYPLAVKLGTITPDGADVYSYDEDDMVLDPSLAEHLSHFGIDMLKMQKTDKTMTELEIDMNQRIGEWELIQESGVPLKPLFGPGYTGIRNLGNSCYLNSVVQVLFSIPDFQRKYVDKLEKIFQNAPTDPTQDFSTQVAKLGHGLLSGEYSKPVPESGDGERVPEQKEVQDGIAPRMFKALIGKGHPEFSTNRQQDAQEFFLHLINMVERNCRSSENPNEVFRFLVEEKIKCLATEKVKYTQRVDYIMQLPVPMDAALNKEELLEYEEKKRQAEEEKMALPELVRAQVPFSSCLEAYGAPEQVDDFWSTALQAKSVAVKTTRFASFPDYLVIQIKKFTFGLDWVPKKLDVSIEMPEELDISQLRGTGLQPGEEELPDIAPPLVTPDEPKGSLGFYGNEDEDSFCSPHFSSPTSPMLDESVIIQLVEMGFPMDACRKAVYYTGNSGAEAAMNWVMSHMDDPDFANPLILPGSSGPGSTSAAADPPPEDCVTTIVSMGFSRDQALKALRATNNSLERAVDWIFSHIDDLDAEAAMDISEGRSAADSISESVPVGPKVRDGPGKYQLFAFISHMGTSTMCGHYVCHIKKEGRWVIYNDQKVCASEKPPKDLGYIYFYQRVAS
# CASP4: Caspase-4 (CASP4, Homo sapiens, UniProt P49662)
# Sequence of UniProt P49662 (whole entry, looked up): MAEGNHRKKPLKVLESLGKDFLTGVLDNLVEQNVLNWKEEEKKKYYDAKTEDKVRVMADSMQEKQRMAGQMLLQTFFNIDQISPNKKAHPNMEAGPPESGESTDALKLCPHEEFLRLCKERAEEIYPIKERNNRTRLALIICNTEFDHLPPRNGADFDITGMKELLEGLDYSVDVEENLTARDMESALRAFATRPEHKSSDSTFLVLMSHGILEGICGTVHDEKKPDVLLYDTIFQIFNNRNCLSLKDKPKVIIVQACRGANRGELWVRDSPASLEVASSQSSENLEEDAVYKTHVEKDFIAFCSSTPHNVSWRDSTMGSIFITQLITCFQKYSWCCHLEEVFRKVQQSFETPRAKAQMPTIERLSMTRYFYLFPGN
# CASP9: Caspase-9 (CASP9, Homo sapiens, UniProt P55211)
# Sequence of UniProt P55211 (whole entry, looked up): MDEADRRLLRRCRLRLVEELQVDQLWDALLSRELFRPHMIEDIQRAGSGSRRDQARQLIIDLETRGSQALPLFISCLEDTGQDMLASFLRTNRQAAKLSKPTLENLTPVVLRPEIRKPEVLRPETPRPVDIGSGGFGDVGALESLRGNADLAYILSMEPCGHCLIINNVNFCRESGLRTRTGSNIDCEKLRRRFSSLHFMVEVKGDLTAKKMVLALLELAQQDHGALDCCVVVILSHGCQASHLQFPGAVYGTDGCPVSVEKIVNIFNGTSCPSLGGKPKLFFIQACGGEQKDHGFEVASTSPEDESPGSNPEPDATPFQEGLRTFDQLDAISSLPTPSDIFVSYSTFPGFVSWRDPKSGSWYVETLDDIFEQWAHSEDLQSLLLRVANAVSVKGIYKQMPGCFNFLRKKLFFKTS
# Lysophospholipase-like protein 1: Lysophospholipase-like protein 1 (Mus musculus, UniProt Q3UFF7)
# Sequence of UniProt Q02127 (whole entry, looked up): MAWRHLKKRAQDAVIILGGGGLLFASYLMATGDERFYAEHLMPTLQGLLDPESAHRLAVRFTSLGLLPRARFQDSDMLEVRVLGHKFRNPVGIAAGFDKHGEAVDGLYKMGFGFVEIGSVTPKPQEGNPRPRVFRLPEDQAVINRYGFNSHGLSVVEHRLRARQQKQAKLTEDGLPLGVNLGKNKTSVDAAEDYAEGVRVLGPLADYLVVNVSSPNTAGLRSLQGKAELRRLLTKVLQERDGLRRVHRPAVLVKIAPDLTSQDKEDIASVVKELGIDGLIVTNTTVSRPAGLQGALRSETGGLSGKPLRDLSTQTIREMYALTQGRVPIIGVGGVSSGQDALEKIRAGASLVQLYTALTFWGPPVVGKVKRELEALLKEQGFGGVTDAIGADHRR
# Sequence of UniProt P46089 (whole entry, looked up): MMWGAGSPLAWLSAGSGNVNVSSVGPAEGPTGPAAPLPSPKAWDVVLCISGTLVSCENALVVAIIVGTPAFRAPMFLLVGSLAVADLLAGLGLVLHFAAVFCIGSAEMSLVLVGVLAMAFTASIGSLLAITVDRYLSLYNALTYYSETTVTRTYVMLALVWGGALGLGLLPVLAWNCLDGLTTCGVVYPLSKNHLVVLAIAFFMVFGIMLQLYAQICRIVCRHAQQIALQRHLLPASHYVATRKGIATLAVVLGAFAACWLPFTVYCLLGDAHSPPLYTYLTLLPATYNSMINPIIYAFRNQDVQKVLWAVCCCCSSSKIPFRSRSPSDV
# Sequence of UniProt Q13148 (whole entry, looked up): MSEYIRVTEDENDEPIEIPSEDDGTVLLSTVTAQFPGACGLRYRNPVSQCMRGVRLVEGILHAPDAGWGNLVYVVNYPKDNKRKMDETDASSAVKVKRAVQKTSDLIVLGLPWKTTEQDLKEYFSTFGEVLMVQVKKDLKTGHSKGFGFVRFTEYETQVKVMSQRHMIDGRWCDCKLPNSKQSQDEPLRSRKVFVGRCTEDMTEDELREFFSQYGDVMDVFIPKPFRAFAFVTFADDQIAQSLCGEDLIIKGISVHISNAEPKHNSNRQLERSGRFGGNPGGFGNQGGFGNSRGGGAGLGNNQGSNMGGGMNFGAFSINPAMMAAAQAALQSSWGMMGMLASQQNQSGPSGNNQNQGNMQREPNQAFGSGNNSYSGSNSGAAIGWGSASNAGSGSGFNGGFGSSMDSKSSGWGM
# Sequence of UniProt Q3UFF7 (whole entry, looked up): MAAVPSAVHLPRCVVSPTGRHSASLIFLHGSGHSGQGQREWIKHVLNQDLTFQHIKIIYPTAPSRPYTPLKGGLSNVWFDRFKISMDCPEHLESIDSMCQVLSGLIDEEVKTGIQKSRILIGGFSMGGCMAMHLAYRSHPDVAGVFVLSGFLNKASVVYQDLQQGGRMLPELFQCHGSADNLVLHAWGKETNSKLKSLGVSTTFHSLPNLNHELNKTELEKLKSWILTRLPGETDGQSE
# Sequence of UniProt P18669 (whole entry, looked up): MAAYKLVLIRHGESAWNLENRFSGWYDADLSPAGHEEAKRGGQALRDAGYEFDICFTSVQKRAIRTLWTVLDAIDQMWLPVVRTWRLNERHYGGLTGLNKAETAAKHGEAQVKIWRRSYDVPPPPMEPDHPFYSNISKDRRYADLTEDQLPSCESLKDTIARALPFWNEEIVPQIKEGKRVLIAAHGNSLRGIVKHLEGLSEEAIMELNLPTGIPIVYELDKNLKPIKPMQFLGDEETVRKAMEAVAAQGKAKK
# Sequence of UniProt P43220 (whole entry, looked up): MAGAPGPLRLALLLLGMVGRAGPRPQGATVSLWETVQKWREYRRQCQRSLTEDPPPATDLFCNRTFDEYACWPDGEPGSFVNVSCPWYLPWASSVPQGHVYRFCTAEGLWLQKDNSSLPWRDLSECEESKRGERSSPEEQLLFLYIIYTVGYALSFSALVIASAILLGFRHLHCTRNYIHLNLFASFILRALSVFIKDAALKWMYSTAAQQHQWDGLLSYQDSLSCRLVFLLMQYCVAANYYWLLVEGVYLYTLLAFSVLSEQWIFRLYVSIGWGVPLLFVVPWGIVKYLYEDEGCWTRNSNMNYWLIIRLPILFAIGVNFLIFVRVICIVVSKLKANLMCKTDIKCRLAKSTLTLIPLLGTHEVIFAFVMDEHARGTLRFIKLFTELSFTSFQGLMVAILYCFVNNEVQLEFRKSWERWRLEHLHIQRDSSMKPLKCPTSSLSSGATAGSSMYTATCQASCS
# Sequence of UniProt Q02790 (whole entry, looked up): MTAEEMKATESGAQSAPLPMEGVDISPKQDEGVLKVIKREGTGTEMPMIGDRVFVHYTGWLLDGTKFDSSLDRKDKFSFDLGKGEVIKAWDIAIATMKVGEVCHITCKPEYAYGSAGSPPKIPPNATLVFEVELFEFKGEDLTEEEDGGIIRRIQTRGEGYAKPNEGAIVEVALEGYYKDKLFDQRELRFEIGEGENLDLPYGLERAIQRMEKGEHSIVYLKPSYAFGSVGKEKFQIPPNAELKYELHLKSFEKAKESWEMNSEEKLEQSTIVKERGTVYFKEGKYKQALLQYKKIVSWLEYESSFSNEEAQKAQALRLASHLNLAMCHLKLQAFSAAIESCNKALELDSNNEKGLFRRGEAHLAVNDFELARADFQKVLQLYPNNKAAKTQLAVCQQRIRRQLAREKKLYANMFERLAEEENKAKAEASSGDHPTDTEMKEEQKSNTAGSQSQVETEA
# Sequence of UniProt Q9NR19 (whole entry, looked up): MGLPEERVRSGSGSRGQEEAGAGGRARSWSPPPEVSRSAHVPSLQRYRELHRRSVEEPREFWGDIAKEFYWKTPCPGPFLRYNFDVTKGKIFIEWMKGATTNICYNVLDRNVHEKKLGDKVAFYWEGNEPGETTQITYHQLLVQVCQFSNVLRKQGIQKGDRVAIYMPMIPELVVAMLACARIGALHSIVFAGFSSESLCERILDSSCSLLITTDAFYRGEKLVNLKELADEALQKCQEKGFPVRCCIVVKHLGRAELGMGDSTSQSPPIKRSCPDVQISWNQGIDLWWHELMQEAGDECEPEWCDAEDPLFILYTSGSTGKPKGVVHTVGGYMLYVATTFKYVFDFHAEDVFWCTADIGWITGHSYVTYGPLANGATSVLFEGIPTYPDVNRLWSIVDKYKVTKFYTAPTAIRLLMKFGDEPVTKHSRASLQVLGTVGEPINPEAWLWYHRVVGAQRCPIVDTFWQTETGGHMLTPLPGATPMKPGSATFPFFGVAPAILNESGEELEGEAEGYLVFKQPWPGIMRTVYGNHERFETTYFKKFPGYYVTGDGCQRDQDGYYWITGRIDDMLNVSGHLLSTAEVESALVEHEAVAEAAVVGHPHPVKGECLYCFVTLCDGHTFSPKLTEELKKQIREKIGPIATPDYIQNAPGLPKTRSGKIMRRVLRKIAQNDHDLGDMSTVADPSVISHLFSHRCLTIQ
Structure (SMILES),tested on,test,system,conditions,scale,measurement,value
C=CC(=O)N1CCCC(n2c(=O)c3ncccc3n(Cc3ccc(Oc4ccccc4)cc3)c2=O)C1 (stereo not drawn),"Phosphoglycerate mutase 1 (Homo sapiens, UniProt P18669)","thermal proteome profiling, refers to: PGAM1",,treated,,melting temperature,58.2 °C and 56.9 °C
"CC(=O)C12NC(C)(C)CC1(C)C(=O)C1=C2c2c(c3c4n2C(C)(C)CC2=C4C4(CC(C)(C)NC(C)(C4)C2=O)CC3(C)C)C(=O)C(C)(C)N1 (single isomer, unassigned; (+))","Transient receptor potential cation channel subfamily A member 1 (TRPA1, Homo sapiens, UniProt O75762)","ion current, inhibitor, patch clamp",HEK-293T,50 µM,,inhibition,1.04%
N#CC(=Cc1cn(CC(=O)O)c2ccccc12)c1ccc(F)cc1,USP5,"enzyme activity, inhibitor",,17 µM,,inhibition,0%
COc1ccc(NC(=O)Nc2ccc3c(c2)C(=O)N(C(C)CO)CC(C)C(CN(C)Cc2ccc4c(c2)OCO4)O3)cc1 (stereo not drawn),"Tyrosine-protein kinase ABL1 (ABL1, Homo sapiens, UniProt P00519, Q252H)",kinase activity,,0.03 µM,reference: control,remaining activity,103%
CC(C)Oc1cc(Cl)ccc1CNc1cc(-c2ccccc2)nc2ncnn12,"G-protein coupled receptor 3 (GPR3, Homo sapiens, UniProt P46089)",cAMP reporter,human cells,100 nM,higher is more cAMP,cAMP luminescence,28800 a.u. and 42400 a.u. and 24100 a.u. and 25500 a.u. and 17200 a.u. and 24800 a.u.
CC1=CC(=NNc2nncc3ccccc23)CC1,USP5,"enzyme activity, inhibitor",,17 µM,,inhibition,4%
O=C1c2sc(-c3ccc(N4CCC(CO)CC4)nc3F)nc2CCN1c1cccnc1,"TAR DNA-binding protein 43, aggregated (TARDBP, Homo sapiens, UniProt Q13148)",radioligand binding,"human, FTLD-TDP type B sarkosyl-insoluble extract",18.97 nM,,specific binding,0.86 nM and 1.12 nM
Cc1cc(Cl)cc(-c2ccnc3cc(CN4C(=O)C5C(C4=O)C5(C)C)sc23)c1C[C@@H]1CNCCO1 (stereo partly drawn),"Ubiquitin carboxyl-terminal hydrolase 7 (USP7, Homo sapiens, UniProt Q93009)",ITC,,"concentration not given, wild-type enzyme",,binding enthalpy,-13.5 ± 0.306 kcal/mol
[2H]C([2H])([2H])C1(C([2H])([2H])[2H])NC(=O)N(c2ccc(F)c(C(C)(F)F)c2)C1=O,"Androgen receptor (AR, Homo sapiens, UniProt P10275)",reporter gene,LAPC4,"up to 100 µM, added: DHT",,transcriptional activity,no effect
CC(=O)N[C@@H](Cc1c[nH]c2ccccc12)C(=O)N[C@@H](CCC(=O)O)C(=O)N[C@@H](Cc1c[nH]cn1)C(=O)N[C@@H](CC(=O)O)C(=O)COC(=O)c1c(C)cccc1C,CASP4,"enzyme activity, inhibitor",,,,kinact/KI,51800 M⁻¹ s⁻¹
CC(C)C[C@H](NC(=O)[C@@H](NC(=O)[C@H](Cc1ccccc1)NC(=O)c1ccc(C(C)(C)C)cc1)C(C)(C)C)C(=O)N[C@@H](CCCCN(C)C1CC2CCC1C2)C(=O)N[C@@H](CO)C(N)=O (stereo partly drawn),"Chromobox protein homolog 8 (Homo sapiens, UniProt Q9HC52)",TR-FRET displacement,,,reference: IC50 CBX7 over IC50 CBX8,selectivity ratio,> 1.3
CN(Cc1cc(C2CC2)on1)C(=O)c1cccc(-c2ccc3c(c2)CCO3)c1,"Acetyl-coenzyme A synthetase, cytoplasmic (ACSS2, Homo sapiens, UniProt Q9NR19)","enzyme activity, inhibitor, coupled pyrophosphate",,781 nM,higher is more activity,reaction rate,0.00337 a.u.
Fc1ccc(Nc2nc(NC3CCCCC3)c3cc(Br)ccc3n2)cc1F,"Beta-2 adrenergic receptor (ADRB2, Homo sapiens, UniProt P07550, F133L)","β-arrestin2 recruitment, antagonist, BRET",,mutant F133L,reference: isoprenaline maximal response,maximal inhibition,8.8%
CN1CCN(Cc2ccc(NC(=O)c3cccc(C#Cc4cnc(N)c5ncccc45)c3)cc2C(F)(F)F)CC1,"Tyrosine-protein kinase ABL1, phosphorylated (ABL1, Homo sapiens, UniProt P00519, T315I)","cell-free assay, competition with immobilised ligand",,0.5 µM,,remaining binding,0.3%
CCCC[C@H](NC(=O)[C@H](CC(=O)O)NC(C)=O)C(=O)N1[C@H](C(=O)N[C@@H](CC(=O)O)C(=O)COC(=O)c2c(C)cccc2C)C[C@@H]2CCCC[C@@H]21,CASP9,"enzyme activity, inhibitor",,,,kinact/KI,16500 M⁻¹ s⁻¹
CSCC[C@H](NC(=O)[C@H](CC(C)C)NC(=O)CNC(=O)[C@@H](NC(=O)[C@H](Cc1ccccc1)NC(=O)[C@H](CO)NC(=O)[C@H](CC(=O)O)NC(=O)[C@@H](NC(=O)[C@H](CCCCN)NC(=O)[C@@H](N)Cc1c[nH]cn1)[C@@H](C)O)C(C)C)C(N)=O,"Substance-P receptor (TACR1, Homo sapiens, UniProt P25103)",cAMP accumulation,,,reference: 10 µM forskolin,Emax,111 ± 11%
O=C(Cc1ccc(OCc2ccccc2)cc1)NC1(C(=O)O)CCN(C(=O)c2ccc(-c3cccc(Cl)c3)cc2)CC1,"Cyclin-dependent kinase-like 4 (CDKL4, Homo sapiens, UniProt Q5MAI5)","enzyme activity, inhibitor",,10 µM,,activity vs control,92%
CC(=O)N[C@@H](CCC(C)C)C(=O)N[C@@H](CCCC(=O)O)C(=O)N[C@@H](CO)C(=O)N[C@@H](CC(=O)O)C(=O)COC(=O)c1c(C)cccc1C,CASP4,"enzyme activity, inhibitor",,,,kinact/KI,31600 M⁻¹ s⁻¹
CN(/N=C/c1ccc(F)cc1C(=O)NO)c1nc(-c2ccccc2Cl)cs1,"Dihydroorotate dehydrogenase (quinone), mitochondrial (DHODH, Homo sapiens, UniProt Q02127)","enzyme activity, inhibitor, DCIP colorimetric",,123.46 nM,,percent effect,10.8% and 13.9% and 9.88%
O=C1c2ccccc2-c2nc3nonc3nc21,USP5,"enzyme activity, inhibitor",,17 µM,,inhibition,31%
CC(=O)N[C@@H](CO)C(=O)N[C@@H](Cc1ccccc1)C(=O)N[C@@H](C)C(=O)N[C@@H](CC(=O)O)C(=O)COC(=O)c1c(C)cccc1C,CASP9,"enzyme activity, inhibitor",,,,kinact/KI,55200 M⁻¹ s⁻¹
N#CC(=Cc1ccco1)C(N)=C(C#N)C#N,USP5,"enzyme activity, inhibitor",,17 µM,,inhibition,1%
CCOC(=O)c1cccc(S(=O)(=O)n2nc(SCc3ccc(Cl)cc3)nc2N)c1,Lysophospholipase-like protein 1,"enzyme activity, activator, gel-based ABPP",purified protein,"concentration not given, added: FP-rhodamine",reference: DMSO,probe labeling increase,2.7 fold
Nc1ncc(-c2cc(-c3cnn(CC(F)(F)F)c3)ncc2F)nc1C(=O)NC1CNCC(F)C1 (stereo not drawn),LATS2,KINOMEscan,,1 µM,reference: DMSO control,remaining binding,100%
C=C[C@H]1CN([C@@H](C)c2cn(CCCNC(=O)CCc3ccc4n3[B-](F)(F)[N+]3=C(c5ccc[nH]5)C=CC3=C4)nn2)C(=O)[C@@H]2CCC[C@H]1N2S(=O)(=O)c1cc(Cl)cc(Cl)c1,"Peptidyl-prolyl cis-trans isomerase FKBP4 (FKBP4, Homo sapiens, UniProt Q02790)","tracer binding, NanoBRET tracer titration",HEK293T transiently expressing FKBP4,,,Hill slope,1 ± 0.1
C=CC(=O)N1[C@H](c2ccc3c(c2)OCO3)c2[nH]c3ccccc3c2C[C@H]1C(=O)N1CCOCC1,"Hepatocyte nuclear factor 3-alpha (FOXA1, Homo sapiens, UniProt P55317)","DNA binding, NanoBRET",,"20 µM, 3 h, added: noncanonical DNA sequences",,apparent affinity,increased
CC(=O)N[C@@H](Cc1c[nH]c2ccccc12)C(=O)N[C@@H](CCCNC(=N)N)C(=O)N[C@@H](CO)C(=O)N[C@@H](CC(=O)O)C(=O)COC(=O)c1c(C)cccc1C,CASP4,inhibitor,,recombinant enzyme,,kobs/[I],16600 M⁻¹ s⁻¹
N#Cc1cccc(C(=O)c2c[nH]c3ccccc23)n1,"Aryl hydrocarbon receptor (AHR, Homo sapiens, UniProt P35869)","reporter gene, agonist, XRE luciferase",HepG2,,reference: ITE,Emax,57 ± 5%
Nc1nc(SCc2ccc(Cl)cc2)nn1S(=O)(=O)c1cccc2scnc12,Lysophospholipase-like protein 1,"enzyme activity, activator, gel-based ABPP",purified protein,"concentration not given, added: FP-rhodamine",reference: DMSO,probe labeling increase,2.1 fold
CC(=O)N[C@@H](CC(=O)O)C(=O)N[C@@H](CCC(=O)O)C(=O)N[C@@H](CC(C)C)C(=O)N[C@@H](CC(=O)O)C(=O)COC(=O)c1c(C)cccc1C,CASP4,"enzyme activity, inhibitor",,,,kinact/KI,32800 M⁻¹ s⁻¹
C=CC(=O)N1CC2(CCN(c3nc(OC4CCN(CCCOC)CC4)nc4c(OCC(F)(F)F)c(-c5c(C)ccc6[nH]ncc56)c(C5CC5)cc34)CC2)C1,"GTPase KRas, GDP-bound (KRAS, Homo sapiens, UniProt P01116, Q61R)","binding, surface plasmon resonance",,,,association rate constant,36200 ± 4900 M⁻¹ s⁻¹
CC[C@H](C)[C@H](NC(=O)[C@H](Cc1ccccc1)NC(=O)[C@H](CCC(=O)O)NC(=O)[C@H](CCCCN)NC(=O)[C@H](C)NC(=O)[C@H](C)NC(=O)[C@H](CCC(N)=O)NC(=O)CNC(=O)[C@H](CCC(=O)O)NC(=O)[C@H](CC(C)C)NC(=O)[C@H](Cc1ccc(O)cc1)NC(=O)[C@H]1CNC[C@@H]1NC(=O)[C@H](CO)NC(=O)C(C)(C)NC(=O)[C@H](CC(=O)O)NC(=O)[C@H](CO)NC(=O)[C@@H](NC(=O)[C@H](Cc1ccccc1)NC(=O)[C@@H](NC(=O)CNC(=O)[C@H](CCC(=O)O)NC(=O)[C@H](C)NC(=O)[C@@H](N)Cc1c[nH]cn1)[C@@H](C)O)[C@@H](C)O)C(=O)N[C@@H](C)C(=O)N[C@@H](Cc1c[nH]c2ccccc12)C(=O)N[C@@H](CC(C)C)C(=O)N[C@H](C(=O)N[C@@H](CCCCN)C(=O)NCC(=O)N[C@@H](CCCNC(=N)N)C(N)=O)C(C)C,"Glucagon-like peptide 1 receptor (GLP1R, Homo sapiens, UniProt P43220)","cAMP production, agonist, GloSensor luminescence",HEK293,15 min,reference: GLP-1,efficacy,104 ± 2%
CC(=O)N[C@@H](CCC(C)C)C(=O)N[C@H](C(=O)N[C@@H](CO)C(=O)N[C@@H](CC(=O)O)C(=O)COC(=O)c1c(C)cccc1C)C(C)(C)C,CASP4,"enzyme activity, inhibitor",,,,kinact/KI,31600 M⁻¹ s⁻¹
COC1CN([C@H]2CC[C@H]([C@@]3(C)Oc4c(Cl)cc(C(=O)NCc5c(SC)cc(C)[nH]c5=O)c(C)c4O3)CC2)C1,,"RNA-seq, refers to: PRXL2A","human, whole blood","dose not given, 24 h",reference: pretreatment baseline,log2 fold change,1.03
CC[C@H](NC(=O)[C@@H](NC(=O)[C@H](CC(=O)O)NC(C)=O)[C@@H](C)O)C(=O)N[C@@H](CC(=O)O)C(=O)COC(=O)c1c(C)cccc1C,CASP4,"enzyme activity, inhibitor",,,,kinact/KI,16600 M⁻¹ s⁻¹
CCCCCCCCCCCCC/C=C/C=O,"WD repeat domain phosphoinositide-interacting protein 3 (WDR45B, Homo sapiens, UniProt Q5MNZ6)",competitive isoTOP-ABPP,"proteome, soluble, MDA-MB-231","100 µM, 60 min, added: iodoacetamide probe","reference: DMSO over compound-treated, higher = stronger cysteine blockade",isoTOP-ABPP competition ratio,1.1

# A few entries again:
Structure (SMILES),tested on,test,system,conditions,scale,measurement,value
CC(=O)N[C@@H](CCC(C)C)C(=O)N[C@@H](CCCC(=O)O)C(=O)N[C@@H](CO)C(=O)N[C@@H](CC(=O)O)C(=O)COC(=O)c1c(C)cccc1C,CASP4,"enzyme activity, inhibitor",,,,kinact/KI,31600 M⁻¹ s⁻¹
N#Cc1cccc(C(=O)c2c[nH]c3ccccc23)n1,"Aryl hydrocarbon receptor (AHR, Homo sapiens, UniProt P35869)","reporter gene, agonist, XRE luciferase",HepG2,,reference: ITE,Emax,57 ± 5%
